Assay results collected from several papers.
Each numbered part is a random draw from the data of one study; scales do not carry over between parts. Positions count from the first letter of the parent shown.
Chain of UniProt P07947 (whole entry, looked up): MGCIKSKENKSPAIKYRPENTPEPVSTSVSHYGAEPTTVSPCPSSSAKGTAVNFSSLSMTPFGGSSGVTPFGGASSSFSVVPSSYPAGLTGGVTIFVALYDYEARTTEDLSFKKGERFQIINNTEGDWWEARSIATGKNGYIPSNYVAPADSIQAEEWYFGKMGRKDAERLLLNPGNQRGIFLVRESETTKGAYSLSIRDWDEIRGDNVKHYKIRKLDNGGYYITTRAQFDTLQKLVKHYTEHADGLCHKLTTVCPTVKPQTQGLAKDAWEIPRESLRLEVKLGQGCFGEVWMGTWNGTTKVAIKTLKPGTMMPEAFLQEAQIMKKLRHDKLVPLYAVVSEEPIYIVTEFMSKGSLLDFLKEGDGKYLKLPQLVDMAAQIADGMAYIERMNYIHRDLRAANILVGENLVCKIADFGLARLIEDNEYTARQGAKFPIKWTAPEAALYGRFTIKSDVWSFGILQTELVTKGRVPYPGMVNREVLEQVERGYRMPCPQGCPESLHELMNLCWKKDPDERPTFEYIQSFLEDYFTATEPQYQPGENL

Study 1
Target: ABI1, truncated, D143A, DHFR fusion (Arabidopsis thaliana, UniProt P49597)
Technique: DHFR PCA, dose-response
Medium: yeast
Notes: Hill fit, mean, not affinity
Added: (+)-ABA, dose series
Direction: lower = more sensitive
Quantity: ABA EC50
Parent: PYL1, truncated, DHFR fusion (Arabidopsis thaliana, UniProt Q8VZS8); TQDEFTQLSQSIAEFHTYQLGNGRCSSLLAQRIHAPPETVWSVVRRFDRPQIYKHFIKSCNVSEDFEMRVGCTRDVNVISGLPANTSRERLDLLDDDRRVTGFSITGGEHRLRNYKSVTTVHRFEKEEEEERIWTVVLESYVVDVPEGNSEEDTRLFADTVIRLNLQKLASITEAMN
L94I: 3.69 µM
Y115L: 226 µM
E14H: 11.6 µM
A13Q: 4.24 µM
E147V: 3.62 µM
S80N: 181 µM
E128L: 3.68 µM
D96M: 135 µM

Study 2
Target: RING finger protein unkempt homolog, zinc fingers 1-6, GST-SBP tag (UNK, Homo sapiens, UniProt Q9C0B0, residues 30-357)
Technique: RNA Bind-n-Seq
Form: RNA
Medium: in vitro
Concentration: not given
Notes: RNA with constant flanks, human and mouse sites, ends assumed
Relative to: input RNA pool
Direction: higher = stronger binding
Quantity: bound/input enrichment
All sequences stand within: GGGAGUUCUACAGUCCGACGAUC … CAACAGAGGAUUGAGCAUCA
Construct (chain): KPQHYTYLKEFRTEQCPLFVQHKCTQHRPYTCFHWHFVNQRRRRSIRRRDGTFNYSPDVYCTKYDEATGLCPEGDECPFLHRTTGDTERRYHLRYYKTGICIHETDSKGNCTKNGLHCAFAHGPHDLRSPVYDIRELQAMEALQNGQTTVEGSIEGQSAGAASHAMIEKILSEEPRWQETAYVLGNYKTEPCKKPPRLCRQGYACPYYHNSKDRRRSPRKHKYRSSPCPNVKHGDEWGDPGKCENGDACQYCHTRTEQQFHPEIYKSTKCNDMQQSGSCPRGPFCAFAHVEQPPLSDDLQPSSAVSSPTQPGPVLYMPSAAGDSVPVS
GCGGCCUCAUUGCUACGAUUUCAGAGUACCCUGGUAAUAGCUGAGCAUGCAAAUGAUUCCCUAGCACCCAUUACUUUAAAUACCAUUACUGCAGCCACACGCCUUGGAGGUGAAGUGUCC: 2.17 ratio
CCCGUCUUGGCUUAUCCACUUUGACUCCUUUGAGCCGUUUGGAGGGGCGGUUUCUGGUAGUUGUGGCUUUUAUGCUUUCAAAGAAUUUCUUCAGUCCAGAGAAUUCCUCCUGGCAGCCCU: 0.183 ratio
ACGAGCUGAUGGAUUGACGUGCGGGCUGCUUAGCCCAGACCGCCGCCCUCGCGCUCGCGCCUUAGACUGGAAUUGGCUGUCUCGGGGCUCUGGCCGCCGGCCUCUCCUCCGCGUUUUCCU: 0.0517 ratio
AAGAUAACUUCAAGGCAGGAAAAAAGGGUAUUUAAUGCUCUGUCAAGCACAUCAGCAAUCAUAGAUUACCUUACAGACCAUUAUGGCAUUUGACUAGACUUCCCAAAUAAUUUUAAUAUA: 1.78 ratio
UUAUCUAAUUAGAAUGAAAAUGAAAGGAGCAAAGAAGGCAUUACUGUAUAUAAUGGAUAUACACUGGUGGUUCUAGAAUUAUGGUAUAUGGUACAUGGUUGAAGUGCCAUUGUUUCAGUU: 2.23 ratio
CACCAUGGCUGUGUUUGUCGUGCUCCUGGCGUUGGUGGCGGGUGUUUUGGGGAACGAGUUUAGUAUAUUAAAAUCACCAGGGUCUGUUGUUUUCCGAAAUGGAAAUUGGCCUAUACCAGG: 6.79 ratio
GAUGGCCGGCGCUACAUGAUGAUCGUGGACCCUGCCAUCAGCAGCGCAGGCCCUGCUGGGAGUUACAGGCCCUACGACGAGGGUCUGCGGAGGGGCGUGUUCAUCACCAACGAGACUGGG: 0.136 ratio
AUCCCUCAGGAAUUGAACAACAUUACCAAGCUCAAUGAACACUUCAGCAAAUUUGGAACUAUUGUUAAUAUCCAGGUUGCUUUUAAGGGUGACCCAGAAGCAGCCCUAAUCCAAUAUCUU: 0.104 ratio

Study 3
Target: Histone acetyltransferase KAT6A, both winged helices, GST fusion (KAT6A, Homo sapiens, UniProt Q92794, residues 1-181)
Technique: protein binding microarray
Form: double-stranded DNA, one strand shown
Medium: in vitro
Concentration: not given
Notes: 8-mer, flanks averaged, mean of 2 arrays, mostly near background
Relative to: not given
Direction: higher = stronger binding
Quantity: E-score
Construct (chain): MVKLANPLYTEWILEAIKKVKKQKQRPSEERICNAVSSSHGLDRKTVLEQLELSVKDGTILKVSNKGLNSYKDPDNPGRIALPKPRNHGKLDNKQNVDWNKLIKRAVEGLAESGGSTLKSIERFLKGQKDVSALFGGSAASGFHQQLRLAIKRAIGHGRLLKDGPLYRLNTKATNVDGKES
GCCCCCCC: -0.21
CCTCAGTC: -0.205
GTCGTTGA: -0.125
GTGTGGGA: -0.0858
CCACTCGG: -0.0767
CCGCGTGC: 0.277
ACGCCTCA: -0.00893
CTTACACC: -0.00908

Mixed results
Cc1cc(-n2nc(Cc3cc(F)cc(C(F)(F)F)c3)nc2C)ccc1C(N)=O  remaining binding (Tyrosine-protein kinase Yes (YES1, Homo sapiens, UniProt P07947); cell-free assay, competition with immobilised ligand; 1 µM): 100%

For quick reference, copied from above (study 3):
CTTACACC: -0.00908
